Results gathered from unrelated publications.
Compare with care: the assays were run in different laboratories. Numbers after ± are the reported error.

For `Nc1ncnc2c([C@@H]3N[C@H](CO)[C@@H](O)[C@H]3O)c[nH]c12`, the inhibition was 65.9% (Sudan ebolavirus; viral replication; HeLa, Boniface; 6.3 µM).
`Cc1ccnc(NC2CCOC3(CCN(C(=O)C4(c5ccccc5)CCCC4)CC3)C2)c1` (stereo not drawn) has an EC50 of > 39.8 µM (Venezuelan equine encephalitis virus; viral replication).
`COc1cc(Br)c2oc(C3CCNCC3)cc2c1` has an EC50 of > 100 µM (SARS-CoV-2; viral replication, high-content imaging screen; cell-based).
With `CCS(=O)(=O)NCC1CCOC2(CCN(C(=O)C3(c4ccccc4)CCCC3)CC2)C1` (stereo not drawn) the EC50 was 12.6 µM (Venezuelan equine encephalitis virus; viral replication).
`Clc1ccc(-c2nn(Cc3ccccc3)c3c2CCNCC3)cc1` has an EC50 of > 25.1 µM (SARS-CoV-2; viral replication, high-content imaging screen; BetaCov/Belgium/GHB-03021/2020; cell-based).
`O=C1c2c(O)c(=O)ccn2N([C@@H]2c3ccccc3SCc3c2ccc(F)c3F)[C@@H]2COCCN12` gave an EC50 of 0.00028 ± 7e-05 µM (Influenza A virus; viral replication; A(H7N7) A/environment/Bangladesh/41896/2019; mean).
`O=C(N1CCC2(CC1)CC(CNS(=O)(=O)CCCCl)CCO2)C1(c2ccccc2)CCCC1` (stereo not drawn) has an EC50 of 10 µM (Venezuelan equine encephalitis virus; viral replication).
`O=c1ccn([C@@H]2O[C@](F)(CO)[C@@H](O)[C@H]2O)c(=O)[nH]1` gave an EC50 of 1.47 µM (Mammarenavirus lassaense; viral replication; Huh-7).
For `Cc1ccccc1CN1C(=O)c2ccccc2Sc2ccc(C(=O)NCCCN3CCOCC3)cc21`, the AC50 was 11.2 µM (SARS-CoV-2; cytopathic effect, cell-based CPE; USA_WA1/2020; round 1, 5-point dilution).
For `CC[C@H](C)[C@H](NC(=O)[C@H](CC(C)C)NC(=O)[C@H](Cc1c[nH]c2ccccc12)NC(=O)[C@H](CCC(N)=O)NC(=O)[C@@H](NC(=O)[C@H](Cc1ccccc1)NC(=O)[C@H](C)NC(=O)[C@H](CCCCNC(=O)COCCOCCNC(=O)COCCOCCNC(=O)CC[C@H](NC(=O)CCCCCCCCCCCCCCCCCCC(=O)O)C(=O)O)NC(=O)[C@H](CCC(N)=O)NC(=O)[C@H](C)NC(=O)[C@@H](NC(=O)[C@H](CCCCN)NC(=O)[C@H](CC(=O)O)NC(=O)[C@H](CC(C)C)NC(=O)C(C)(C)NC(=O)[C@@H](NC(=O)[C@H](CO)NC(=O)[C@H](Cc1ccc(O)cc1)NC(=O)[C@H](CC(=O)O)NC(=O)[C@H](CO)NC(=O)[C@@H](NC(=O)[C@H](Cc1ccccc1)NC(=O)[C@@H](NC(=O)CNC(=O)[C@H](CCC(=O)O)NC(=O)C(C)(C)NC(=O)[C@@H](N)Cc1ccc(O)cc1)[C@@H](C)O)[C@@H](C)O)[C@@H](C)CC)[C@@H](C)CC)C(C)C)C(=O)N[C@@H](C)C(=O)NCC(=O)NCC(=O)N1CCC[C@H]1C(=O)N[C@@H](CO)C(=O)N[C@@H](CO)C(=O)NCC(=O)N[C@@H](C)C(=O)N1CCC[C@H]1C(=O)N1CCC[C@H]1C(=O)N1CCC[C@H]1C(=O)N[C@@H](CO)C(N)=O`, “subjects with treatment-boosted ADA” read 0% (measured: anti-drug antibodies; healthy human subjects; 5/5/8/10 mg escalating, titer increase ≥4-fold).
`N#Cc1c(Nc2ccc(F)cc2)n[nH]c1NS(=O)(=O)c1ccc2ccccc2c1` has an EC50 of > 1.1 µM (Powassan virus; viral replication; BHK-21, LB).
For `CCn1cc(-c2ccnc3[nH]c(-c4cccc(CN(C)C)c4)cc23)c(-c2ccc(NC(=O)N(C)C)cc2)n1`, the EC50 was > 100 µM (SARS-CoV-2; viral replication, high-content imaging screen; cell-based).
The EC50 of `NC(=O)c1ncn([C@@H]2O[C@H](CO)[C@@H](O)[C@H]2O)n1` is reported as 15 µM (yellow fever virus; viral replication; BHK-21; 72 h).
The EC50 of `Cc1c(-c2ccc(O)cc2)n(Cc2ccc(OCCN3CCCCC3)cc2)c2ccc(O)cc12` is reported as 3.63 µM (SARS-CoV-2; viral replication, GFP plate reader screen; cell-based).
For `CNC(=O)[C@@H](NC(=O)[C@H](CC(C)C)[C@H](O)C(=O)NO)C(C)(C)C`, “remaining fibrinogen Aα chain” read 0.236 (human fibrinogen; SDS-PAGE; Daboia russelii; concentration not given, unit not given, together with: MH venom; relative to: untreated fibrinogen).
The EC50 of `NC(=O)c1nc(F)c[nH]c1=O` is reported as 21 µM (Rift Valley fever virus; viral replication; MDCK).
For `CC(C)NC(=O)NCC1CCOC2(CCN(C(=O)C3(c4ccccc4)CCCC3)CC2)C1` (stereo not drawn), the EC50 was > 39.8 µM (Venezuelan equine encephalitis virus; viral replication).
For `O=C(NC1CN2CCC1CC2)c1cc(Cl)cc2c1OC1CCCCC21` (stereo not drawn), the EC50 was > 25.1 µM (SARS-CoV-2; viral replication, high-content imaging screen; BetaCov/Belgium/GHB-03021/2020; cell-based).
For `O=C(N1CCC2(CC1)C[C@H](CN1CCCCS1(=O)=O)CCO2)C1(c2ccccc2)CCCC1`, the EC50 was > 32 µM (Yellow fever virus; viral replication; Huh-7).
Under “patients with adverse event”, `Cn1cnc(Cn2c(=O)[nH]/c(=N\c3cc4cn(C)nc4cc3Cl)n(Cc3cc(F)c(F)cc3F)c2=O)n1` is recorded as 0% (human, normal renal function; oral, 375 mg, treatment-related decreased GFR, Mild severity).
`O=C(N1CCC2(CC1)CC(CN1CCCCS1(=O)=O)CCO2)C1(c2ccccc2F)CCCC1` (stereo not drawn) gave an EC50 of 1.58 µM (Venezuelan equine encephalitis virus; viral replication).
`COC(=O)N[C@H](C(=O)N1CCC[C@H]1c1ncc(-c2ccc3cc(-c4ccc5nc([C@@H]6CCCN6C(=O)[C@@H](NC(=O)OC)C(C)C)[nH]c5c4)ccc3c2)[nH]1)C(C)C` gave an EC50 of > 100 µM (SARS-CoV-2; viral replication, GFP plate reader screen; cell-based).
With `CCCCN(CCCNC(=O)c1cc(Nc2ccc(OC)c(OC)c2)nc2ccccc12)Cc1ccccc1` the AC50 was 10 µM (SARS-CoV-2; cytopathic effect, cell-based CPE; USA_WA1/2020; round 2, 5-point dilution).
The EC50 of `O=C(NCC1CCOC2(CCN(C(=O)C3(c4ccccc4)CCCC3)CC2)C1)C1CCCCC1` (stereo not drawn) is reported as 25.1 µM (Venezuelan equine encephalitis virus; viral replication).

A few entries again:
`N#Cc1c(Nc2ccc(F)cc2)n[nH]c1NS(=O)(=O)c1ccc2ccccc2c1` has an EC50 of > 1.1 µM (Powassan virus; viral replication; BHK-21, LB).
For `CCn1cc(-c2ccnc3[nH]c(-c4cccc(CN(C)C)c4)cc23)c(-c2ccc(NC(=O)N(C)C)cc2)n1`, the EC50 was > 100 µM (SARS-CoV-2; viral replication, high-content imaging screen; cell-based).
The EC50 of `NC(=O)c1ncn([C@@H]2O[C@H](CO)[C@@H](O)[C@H]2O)n1` is reported as 15 µM (yellow fever virus; viral replication; BHK-21; 72 h).
The EC50 of `Cc1c(-c2ccc(O)cc2)n(Cc2ccc(OCCN3CCCCC3)cc2)c2ccc(O)cc12` is reported as 3.63 µM (SARS-CoV-2; viral replication, GFP plate reader screen; cell-based).
